# Assay results from different studies.
# Protocols differ between the studies behind these lines. Several values in a cell are separate wells, animals, samples, runs or records. Numbers after ± are the reported error.
# Spike glycoprotein: Spike glycoprotein (Severe acute respiratory syndrome coronavirus 2, UniProt P0DTC2)
# rep main protease: Replicase polyprotein 1ab, main protease (rep, Severe acute respiratory syndrome coronavirus 2, UniProt P0DTD1)
Substance,target or system,assay,test system,setting,scale,endpoint,value
O=C(O[C@@H]1O[C@@H]2COC(=O)c3cc(O)c(O)c(O)c3-c3c(cc(O)c(O)c3O)C(=O)O[C@H]([C@H]1O)[C@@H]2O)c1cc(O)c(O)c(O)c1,Spike glycoprotein,"binding, BLI",,,,kon,467 M⁻¹ s⁻¹
CCc1c(C(=O)C(N)=O)c2c(OCC(=O)O)cccc2n1Cc1ccccc1,Daboia russelii venom phospholipase A2,"enzyme activity, inhibitor",KL population,"1 µM, with: NOB substrate",relative to: venom alone,remaining activity,35.7% and 37.7% and 33.1%
Cn1cnc(Cn2c(=O)[nH]/c(=N\c3cc4cn(C)nc4cc3Cl)n(Cc3cc(F)c(F)cc3F)c2=O)n1,,,"human, normal renal function","oral, 375 mg, single dose, geometric mean",,terminal half-life,44 h
Nc1ncnc2c([C@@H]3N[C@H](CO)[C@@H](O)[C@H]3O)c[nH]c12,Zaire ebolavirus,viral replication,"HeLa, Kikwit",25 µM,,inhibition,94.1%
CC[C@H](C)[C@H](NC(=O)[C@H](CC(C)C)NC(=O)[C@H](CO)NC(=O)[C@H](Cc1c[nH]cn1)NC(=O)[C@@H](NC(=O)[C@H](CC(C)C)NC(=O)[C@H](CO)NC(=O)[C@@H](NC(=O)[C@H](Cc1ccc(O)cc1)NC(=O)[C@H](CC(N)=O)NC(=O)[C@H](CC(N)=O)NC(=O)[C@@H](NC(=O)[C@H](CCC(=O)O)NC(=O)[C@H](CCCNC(=N)N)NC(=O)[C@H](CC(=O)O)NC(=O)[C@H](Cc1c[nH]c2ccccc12)NC(=O)[C@H](CCC(=O)O)NC(=O)[C@H](CCSC)NC(=O)[C@H](Cc1c[nH]c2ccccc12)NC(C)=O)[C@@H](C)CC)[C@@H](C)O)[C@@H](C)CC)C(=O)N[C@@H](CCC(=O)O)C(=O)N[C@@H](CCC(=O)O)C(=O)N[C@@H](CO)C(=O)N[C@@H](CCC(N)=O)C(=O)N[C@@H](CC(N)=O)C(=O)N[C@@H](CCC(N)=O)C(=O)N[C@@H](CCC(N)=O)C(=O)N[C@@H](CCC(=O)O)C(=O)N[C@@H](CCCCN)C(=O)N[C@@H](CC(N)=O)C(=O)N[C@@H](CCC(=O)O)C(=O)N[C@@H](CCC(N)=O)C(=O)N[C@@H](CCC(=O)O)C(=O)N[C@@H](CC(C)C)C(=O)N[C@@H](CC(C)C)C(=O)NCC(=O)N[C@@H](CO)C(=O)NCC(=O)N[C@@H](CSCC(=O)O[C@H]1CC[C@@]2(C)C(=CC[C@H]3[C@@H]4CC[C@H]([C@H](C)CCCC(C)(C)O)[C@@]4(C)CC[C@@H]32)C1)C(N)=O,,Trp fluorescence,POPC/cholesterol/SM vesicles,"5 µM, pH 7.4, 25 °C",,partition coefficient,775 ± 307
Cc1nc(C)c(CCC(=O)N2C[C@]34CCC[C@@]3(C2)CN(C(=O)[C@@H]2CCC(=O)NC2)C4)c(=O)[nH]1,rep main protease,"enzyme activity, inhibitor",,"5 µM, mean of runs",,inhibition,13.3%
CC[C@H](C)[C@H](NC(=O)[C@H](CC(C)C)NC(=O)[C@H](Cc1c[nH]c2ccccc12)NC(=O)[C@H](CCC(N)=O)NC(=O)[C@@H](NC(=O)[C@H](Cc1ccccc1)NC(=O)[C@H](C)NC(=O)[C@H](CCCCNC(=O)COCCOCCNC(=O)COCCOCCNC(=O)CC[C@H](NC(=O)CCCCCCCCCCCCCCCCCCC(=O)O)C(=O)O)NC(=O)[C@H](CCC(N)=O)NC(=O)[C@H](C)NC(=O)[C@@H](NC(=O)[C@H](CCCCN)NC(=O)[C@H](CC(=O)O)NC(=O)[C@H](CC(C)C)NC(=O)C(C)(C)NC(=O)[C@@H](NC(=O)[C@H](CO)NC(=O)[C@H](Cc1ccc(O)cc1)NC(=O)[C@H](CC(=O)O)NC(=O)[C@H](CO)NC(=O)[C@@H](NC(=O)[C@H](Cc1ccccc1)NC(=O)[C@@H](NC(=O)CNC(=O)[C@H](CCC(=O)O)NC(=O)C(C)(C)NC(=O)[C@@H](N)Cc1ccc(O)cc1)[C@@H](C)O)[C@@H](C)O)[C@@H](C)CC)[C@@H](C)CC)C(C)C)C(=O)N[C@@H](C)C(=O)NCC(=O)NCC(=O)N1CCC[C@H]1C(=O)N[C@@H](CO)C(=O)N[C@@H](CO)C(=O)NCC(=O)N[C@@H](C)C(=O)N1CCC[C@H]1C(=O)N1CCC[C@H]1C(=O)N1CCC[C@H]1C(=O)N[C@@H](CO)C(N)=O,,,"patients with type 2 diabetes, serum","5/5/10/10 mg escalating, day 29",,total ALT,33 ± 24.4 U/L
Aprotinin,rep main protease,"enzyme activity, mKate2 fluorescence reporter",SARS-CoV-2,20 µM,,inhibition,-0.0274%
Nc1ncnc2c1ncn2C1CCN(C(=O)c2ccc(S(=O)(=O)F)cc2)CC1,"Calmodulin-sensitive adenylate cyclase (cya, Bacillus anthracis, UniProt P40136)",,,,,kinact,0.000167 s⁻¹
C#Cc1cncc(C(=O)N2CCC3(CC2)CN(C(=O)[C@H]2CCC[C@@H]2O)Cc2ccccc2O3)c1,rep main protease,"enzyme activity, inhibitor",,"5 µM, mean of runs",,inhibition,10%
CC(C)(C)[C@H](NC(=O)C(F)(F)F)C(=O)N1C[C@H]2[C@@H]([C@H]1C(=O)N[C@H](C#N)C[C@@H]1CCNC1=O)C2(C)C,,,"human, fasted","oral, 1500 mg single dose, no ritonavir",,AUC(0-t),10900 ng·h/mL
Nc1ncnc2c1ncn2[C@H]1C[C@H](O)[C@@H](COP(=O)(O)OP(=O)(O)OP(=O)(O)O)O1,"Gag-Pol polyprotein, reverse transcriptase (gag-pol, Human immunodeficiency virus type 1 group M subtype B, UniProt P04585, K653R)",substrate,,"K66R mutant, with: G:A mismatched primer template",,Km,124 ± 101 µM
COC(=O)[C@]1(C)CC[C@]2(C(=O)O[C@@H]3O[C@H](CO)[C@@H](O)[C@H](O)[C@H]3O)CC[C@]3(C)C(=CC[C@@H]4[C@@]5(C)C[C@H](O)[C@H](O[C@@H]6OC[C@@H](O[C@@H]7O[C@H](CO)[C@@H](O)[C@H](O)[C@H]7O)[C@H](O)[C@H]6O)[C@@](C)(CO)C5CC[C@]43C)[C@H]2C1 (stereo partly drawn),Spike glycoprotein,"binding, biolayer interferometry",,,,koff,1.29 s⁻¹
CC[C@H](C)[C@H](NC(=O)[C@@H]1CCCN1C(=O)[C@H](C)NC(=O)[C@@H]1CSSC[C@@H]2NC(=O)[C@H](CC(=O)O)NC(=O)[C@H](CCCNC(=N)N)NC(=O)[C@H](CCC(=O)O)NC(=O)[C@H](CCCNC(=N)N)NC(=O)CNC(=O)[C@H](CC(=O)O)NC(=O)[C@@H]3CSSC[C@H](NC(=O)[C@H](CCC(=O)O)NC(=O)[C@H](CC(C)C)NC(=O)CNC(=O)[C@H](C)NC(=O)[C@H](CSSC[C@H](NC(=O)[C@H](Cc4ccccc4)NC(=O)[C@@H](N)CO)C(=O)N[C@@H](CC(C)C)C(=O)N[C@@H](C(C)C)C(=O)N[C@@H](CCCCN)C(=O)N[C@@H](Cc4c[nH]c5ccccc45)C(=O)N[C@@H](CCCCN)C(=O)N[C@@H](CCC(N)=O)C(=O)N3)NC2=O)C(=O)N[C@@H](Cc2c[nH]c3ccccc23)C(=O)N[C@@H](CCCCN)C(=O)N[C@@H](CCCNC(=N)N)C(=O)N[C@@H](CCCNC(=N)N)C(=O)NCC(=O)N[C@@H](CC(N)=O)C(=O)N[C@@H](CCCCN)C(=O)N[C@@H](CO)C(=O)N[C@@H](CO)C(=O)N[C@@H](C(C)C)C(=O)N1)C(=O)N[C@H](C(=O)O)[C@@H](C)O,"Acid-sensing ion channel 1 (ASIC1, Homo sapiens, UniProt P78348)","ion current, outside-out patch clamp",HEK-293T,100 nM,relative to: same patch before toxin,rise time slowing,63 ± 17 fold
CSCC[C@H](NC(=O)[C@H](CCCNC(=N)N)NC(=O)[C@H](Cc1ccccc1)NC(=O)[C@H](CS)NC(=O)[C@H](C)NC(=O)[C@@H](NC(=O)[C@@H](NC(=O)[C@H](C)NC(=O)[C@H](CCCNC(=N)N)NC(=O)[C@H](CCCNC(=N)N)NC(=O)[C@H](CCCNC(=N)N)NC(=O)[C@H](CCC(N)=O)NC(=O)[C@H](CCCCN)NC(=O)[C@H](CO)NC(=O)[C@H](CC(C)C)NC(=O)[C@H](CC(C)C)NC(=O)[C@H](CCCCN)NC(=O)[C@H](Cc1c[nH]cn1)NC(=O)[C@H](Cc1c[nH]c2ccccc12)NC(=O)[C@@H](NC(=O)[C@H](C)NC(=O)[C@H](CCCCN)NC(=O)[C@H](CCCCN)NC(=O)[C@H](CO)NC(=O)[C@H](CCCCN)NC(C)=O)C(C)C)C(C)C)C(C)C)C(=O)N[C@H](C(=O)N1CCC[C@H]1C(=O)N[C@@H](CC(C)C)C(=O)N[C@@H](Cc1ccc(O)cc1)C(=O)N[C@@H](CC(N)=O)C(N)=O)[C@@H](C)O,calmodulin 1-148 sites III and IV,"calcium binding, Tyr fluorescence titration",,"12 µM, pH 7.4, 22 °C, with: 6 µM calmodulin",,apparent ΔG1,-10 ± 0.03 kcal/mol
O=S(=O)(NC1CCC(c2cc(F)ccc2F)(S(=O)(=O)c2ccc(Cl)cc2)CC1)C(F)(F)F (stereo not drawn),rep main protease,"reporter gene (mKate2), inhibitor",HEK293T,20 µM,,inhibition,-0.115%
O=C(N[C@@H]1CCCC[C@]12CCCN(C(=O)c1cc[nH]c(=O)c1)C2)c1cncc2ccccc12,rep main protease,"enzyme activity, inhibitor",,"5 µM, run 1",,inhibition,12.9%
C=C(CC[C@@H](C(=O)O)[C@H]1[C@H](O)C[C@@]2(C)C3=CC[C@H]4C(C)(C)C(=O)CC[C@]4(C)C3=CC[C@]12C)C(C)C,rep main protease,"reporter gene (Gaussia luciferase), inhibitor",,20 µM,,inhibition,1.45%
O=C(NC[C@H](NC(=O)c1cncc2sccc12)c1ccc2ccccc2c1)c1cocn1,rep main protease,enzyme activity,,5 µM,,inhibition,19.3%
C=C1C[C@@]23CC[C@H]4[C@@](C)(CCC[C@@]4(C)C(=O)O[C@@H]4O[C@H](CO)[C@@H](O)[C@H](O)[C@H]4O)[C@@H]2CC[C@]1(O[C@@H]1O[C@H](CO)[C@@H](O)[C@H](O)[C@H]1O)C3,Spike glycoprotein,"binding, BLI",,,,kon,101000 M⁻¹ s⁻¹
C=C1C(=O)C23C(O)C1CCC2C12COC3(O)C(O)C1C(C)(C)CCC2OC(C)=O (stereo not drawn),rep main protease,"viral replication, mKate2 reporter",SARS-CoV-2,20 µM,,inhibition,-1.59%

# Repeated from above:
Substance,target or system,assay,test system,setting,scale,endpoint,value
CC[C@H](C)[C@H](NC(=O)[C@H](CC(C)C)NC(=O)[C@H](CO)NC(=O)[C@H](Cc1c[nH]cn1)NC(=O)[C@@H](NC(=O)[C@H](CC(C)C)NC(=O)[C@H](CO)NC(=O)[C@@H](NC(=O)[C@H](Cc1ccc(O)cc1)NC(=O)[C@H](CC(N)=O)NC(=O)[C@H](CC(N)=O)NC(=O)[C@@H](NC(=O)[C@H](CCC(=O)O)NC(=O)[C@H](CCCNC(=N)N)NC(=O)[C@H](CC(=O)O)NC(=O)[C@H](Cc1c[nH]c2ccccc12)NC(=O)[C@H](CCC(=O)O)NC(=O)[C@H](CCSC)NC(=O)[C@H](Cc1c[nH]c2ccccc12)NC(C)=O)[C@@H](C)CC)[C@@H](C)O)[C@@H](C)CC)C(=O)N[C@@H](CCC(=O)O)C(=O)N[C@@H](CCC(=O)O)C(=O)N[C@@H](CO)C(=O)N[C@@H](CCC(N)=O)C(=O)N[C@@H](CC(N)=O)C(=O)N[C@@H](CCC(N)=O)C(=O)N[C@@H](CCC(N)=O)C(=O)N[C@@H](CCC(=O)O)C(=O)N[C@@H](CCCCN)C(=O)N[C@@H](CC(N)=O)C(=O)N[C@@H](CCC(=O)O)C(=O)N[C@@H](CCC(N)=O)C(=O)N[C@@H](CCC(=O)O)C(=O)N[C@@H](CC(C)C)C(=O)N[C@@H](CC(C)C)C(=O)NCC(=O)N[C@@H](CO)C(=O)NCC(=O)N[C@@H](CSCC(=O)O[C@H]1CC[C@@]2(C)C(=CC[C@H]3[C@@H]4CC[C@H]([C@H](C)CCCC(C)(C)O)[C@@]4(C)CC[C@@H]32)C1)C(N)=O,,Trp fluorescence,POPC/cholesterol/SM vesicles,"5 µM, pH 7.4, 25 °C",,partition coefficient,775 ± 307
Cc1nc(C)c(CCC(=O)N2C[C@]34CCC[C@@]3(C2)CN(C(=O)[C@@H]2CCC(=O)NC2)C4)c(=O)[nH]1,rep main protease,"enzyme activity, inhibitor",,"5 µM, mean of runs",,inhibition,13.3%
